Measurements from different studies.
Protocols differ between the studies behind these lines. ± marks the error that the study gave.
CYP2E1: Cytochrome P450 2E1 (CYP2E1, Homo sapiens, UniProt P05181)
PROK: Proteinase K (PROK, Engyodontium album, UniProt P06873)
CYP1A2: Cytochrome P450 1A2 (CYP1A2, Homo sapiens, UniProt P05177)

Oc1c(Br)cccc1Br has a Ki of 3.5 µM (CYP2E1; p-nitrophenol hydroxylation, competitive inhibitor, Cheng-Prusoff from IC50; with: p-nitrophenol).
CC(=O)NCc1cccc(C(=O)Nc2cccc3c(S(=O)(=O)O)cc(C(=O)NCc4cccc(C(=O)Nc5cccc6c(S(=O)(=O)O)cc(C(=O)NCC(=O)N[C@@H](CC(C)C)C(=O)N[C@@H](CCCCN)C(=O)N[C@@H](C)C(=O)NCC(=O)O)nc56)n4)nc23)n1 has a half-life of 9 min (pronase E; substrate, RP-HPLC; pH 7.5, room temperature).
For CC(C)C[C@@H]1NC(=O)C[C@@H](C(=O)N[C@@H](Cc2c[nH]c3ccccc23)C(=O)N[C@@H](CC(N)=O)C(=O)N[C@@H](C)C(=O)N2CCC[C@H]2C(=O)NCC(=O)N[C@@H](Cc2c[nH]c3ccccc23)C(=O)N[C@@H](Cc2ccccc2)C(=O)O)NC(=O)[C@H](C)NC(=O)[C@H](CCC(N)=O)NC(=O)[C@H](C(C)C)NC(=O)[C@H](C)NC(=O)[C@H](C(C)C)NC(=O)[C@H](C(C)C)NC1=O, proteolytic stability read “stable” (carboxypeptidase Y; 12 h, pH 6.0, 28 °C).
Under “ln rate constant ratio”, CC[C@H](C)[C@H](NC(=O)[C@H](Cc1c[nH]cn1)NC(=O)[C@H](CC(N)=O)NC(=O)[C@H](Cc1ccccc1)NC(=O)[C@H](Cc1ccc(O)cc1)NC(=O)[C@H](Cc1ccc(O)cc1)NC(=O)[C@@H](NC(=O)[C@H](CCCNC(=N)N)NC(=O)CNC(=O)[C@H](CO)NC(=O)[C@H](CO)NC(=O)[C@H](CCCNC(=N)N)NC(=O)[C@H](CC(=O)N(CCOCCOCCOCCOC)CCOCCOCCOCCOC)NC(=O)[C@H](CCSC)NC(=O)[C@H](CCCNC(=N)N)NC(=O)[C@H](CCCCN)NC(=O)[C@H](CCC(=O)O)NC(=O)[C@H](Cc1c[nH]c2ccccc12)NC(=O)CNC(=O)[C@@H]1CCCN1C(=O)[C@@H]1CCCN1C(=O)[C@H](CC(C)C)NC(=O)[C@@H](N)CCCCN)C(C)C)C(=O)N[C@H](C(=O)N[C@@H](CC(N)=O)C(=O)N[C@@H](C)C(=O)N[C@@H](CO)C(=O)N[C@@H](CCC(N)=O)C(=O)N[C@@H](Cc1ccccc1)C(=O)N[C@@H](CCC(=O)O)C(=O)N[C@@H](CCCNC(=N)N)C(=O)N1CCC[C@H]1C(=O)N[C@@H](CO)C(=O)NCC(=O)O)[C@@H](C)O is recorded as -2.4 ± 0.3 (PROK; proteolysis, substrate, HPLC; room temperature; reference: PEGylated over non-PEGylated variant, negative = more stable).
CCCCCCCCCCCCCCCC(=O)Nc1nc2ccccc2c2c1ncn2CC(C)C — result for “maximum adsorption capacity”: 455 ± 16.9 mg/g (SERPINB14 (Gallus gallus, UniProt P01012)).
O=C1Cc2cc(CCN3CCN(C4=NS(=O)(=O)c5ccccc54)CC3)c(Cl)cc2N1 gave an inhibition of 11.7% (CYP1A2; inhibitor; human liver microsomes; 2 µM, pH 7.4, with: phenacetin).
For [64Cu+2].c1ccc(CNCc2ccc(CN3CCCNCCNCCCNCC3)cc2)nc1, the tumour-to-blood ratio was 27.3 ± 2.7 (CXCR4; NOD/SCID mouse, U87 and U87-stb-CXCR4 xenografts; iv, 90 min, no blocking dose; reference: U87-stb-CXCR4 tumour over blood).
Under “ln rate constant ratio”, CC[C@H](C)[C@H](NC(=O)[C@H](Cc1c[nH]cn1)NC(=O)[C@H](CC(N)=O)NC(=O)[C@H](Cc1ccccc1)NC(=O)[C@H](Cc1ccc(O)cc1)NC(=O)[C@H](Cc1ccc(O)cc1)NC(=O)[C@@H](NC(=O)[C@H](CCCNC(=N)N)NC(=O)CNC(=O)[C@H](CO)NC(=O)[C@H](CO)NC(=O)[C@H](CCCNC(=N)N)NC(=O)[C@H](CO)NC(=O)[C@H](CCSC)NC(=O)[C@H](CCCNC(=N)N)NC(=O)[C@H](CCCCN)NC(=O)[C@H](CCC(=O)O)NC(=O)[C@H](Cc1c[nH]c2ccccc12)NC(=O)CNC(=O)[C@@H]1CCCN1C(=O)[C@@H]1CCCN1C(=O)[C@H](CC(C)C)NC(=O)[C@@H](N)CCCCN)C(C)C)C(=O)N[C@@H](CCC(=O)NCCOCCOCCOCCOC)C(=O)N[C@@H](CC(N)=O)C(=O)N[C@@H](C)C(=O)N[C@@H](CO)C(=O)N[C@@H](CCC(N)=O)C(=O)N[C@@H](Cc1ccccc1)C(=O)N[C@@H](CCC(=O)O)C(=O)N[C@@H](CCCNC(=N)N)C(=O)N1CCC[C@H]1C(=O)N[C@@H](CO)C(=O)NCC(=O)O is recorded as -0.2 ± 0.3 (PROK; proteolysis, substrate, HPLC; room temperature; reference: PEGylated over non-PEGylated variant, negative = more stable).
CNC(=O)Oc1cc(C)c(S(C)(=O)=O)c(C)c1 has an inhibition of 2.14% (CYP1A2; inhibitor; human liver microsomes; 2 µM, pH 7.4, with: phenacetin).
For CC[C@H](C)[C@H](NC(=O)[C@H](Cc1c[nH]cn1)NC(=O)[C@H](CC(N)=O)NC(=O)[C@H](Cc1ccccc1)NC(=O)[C@H](Cc1ccc(O)cc1)NC(=O)[C@H](Cc1ccc(O)cc1)NC(=O)[C@@H](NC(=O)[C@H](CCCNC(=N)N)NC(=O)CNC(=O)[C@H](CO)NC(=O)[C@H](CO)NC(=O)[C@H](CCCNC(=N)N)NC(=O)[C@H](Cc1ccc(OCc2cn(CCOCCOCCOCCOC)nn2)cc1)NC(=O)[C@H](CCSC)NC(=O)[C@H](CCCNC(=N)N)NC(=O)[C@H](CCCCN)NC(=O)[C@H](CCC(=O)O)NC(=O)[C@H](Cc1c[nH]c2ccccc12)NC(=O)CNC(=O)[C@@H]1CCCN1C(=O)[C@@H]1CCCN1C(=O)[C@H](CC(C)C)NC(=O)[C@@H](N)CCCCN)C(C)C)C(=O)N[C@H](C(=O)N[C@@H](CC(N)=O)C(=O)N[C@@H](C)C(=O)N[C@@H](CO)C(=O)N[C@@H](CCC(N)=O)C(=O)N[C@@H](Cc1ccccc1)C(=O)N[C@@H](CCC(=O)O)C(=O)N[C@@H](CCCNC(=N)N)C(=O)N1CCC[C@H]1C(=O)N[C@@H](CO)C(=O)NCC(=O)O)[C@@H](C)O, “ln rate constant ratio” read 1.3 ± 0.6 (PROK; proteolysis, substrate, HPLC; room temperature; reference: PEGylated over non-PEGylated variant, negative = more stable).
Under “time to degradation”, CC[C@H](C)[C@H](NC(=O)[C@H](C)NC(=O)[C@H](CCCNC(=N)N)NC(=O)CNC(=O)CNC(=O)[C@H](CCCNC(=N)N)NC(=O)[C@H](CCCNC(=N)N)NC(=O)[C@H](CCCNC(=N)N)NC(=O)[C@H](CCC(N)=O)NC(=O)[C@H](CCCNC(=N)N)NC(=O)[C@H](CCCNC(=N)N)NC(=O)[C@H](CCCCN)NC(=O)[C@H](CCCCN)NC(=O)[C@H](CCCNC(=N)N)NC(=O)CNC(=O)[C@@H](N)Cc1ccc(O)cc1)C(=O)N[C@H](C(=O)N[C@H](C(=O)N[C@@H](CC(C)C)C(=O)N[C@@H](CC(=O)O)C(=O)N[C@H](C(=O)N[C@@H](CCC(=O)O)C(=O)N[C@@H](CCCCN)C(=O)N[C@@H](CO)C(=O)O)[C@@H](C)O)[C@@H](C)CC)[C@@H](C)O is recorded as ≤ 20 min (Trypsin (Sus scrofa, UniProt P00761); 1 mg/mL, pH 8.0, 37 °C, with: trypsin).
CCCS(=O)(=O)c1ccc2[nH]c(NC(=O)OC)nc2c1 has an inhibition of 2.25% (CYP1A2; inhibitor; human liver microsomes; 2 µM, pH 7.4, with: phenacetin).
For CC[C@@H]1CN2CCc3c([nH]c4cccc(OC)c34)[C@@H]2C[C@@H]1/C(=C\OC)C(=O)OC, the IC50 was > 100 µM (UDP-glucuronosyltransferase, human; 4-MU glucuronidation, inhibitor; human liver microsomes; 30 min, pH 7.4, with: 4-methylumbelliferone 100 µM).
For Cc1cc(Br)c(O)c(Br)c1, the Ki was 14 µM (CYP2E1; p-nitrophenol hydroxylation, noncompetitive inhibitor, calculated from IC50; baculosomes).
For CC[C@H](C)[C@H](NC(=O)[C@H](CC(=O)N(CCOCCOCCOCCOC)CCOCCOCCOCCOC)NC(=O)[C@H](CC(N)=O)NC(=O)[C@H](Cc1ccccc1)NC(=O)[C@H](Cc1ccc(O)cc1)NC(=O)[C@H](Cc1ccc(O)cc1)NC(=O)[C@@H](NC(=O)[C@H](CCCNC(=N)N)NC(=O)CNC(=O)[C@H](CO)NC(=O)[C@H](CO)NC(=O)[C@H](CCCNC(=N)N)NC(=O)[C@H](CO)NC(=O)[C@H](CCSC)NC(=O)[C@H](CCCNC(=N)N)NC(=O)[C@H](CCCCN)NC(=O)[C@H](CCC(=O)O)NC(=O)[C@H](Cc1c[nH]c2ccccc12)NC(=O)CNC(=O)[C@@H]1CCCN1C(=O)[C@@H]1CCCN1C(=O)[C@H](CC(C)C)NC(=O)[C@@H](N)CCCCN)C(C)C)C(=O)N[C@H](C(=O)N[C@@H](CC(N)=O)C(=O)N[C@@H](C)C(=O)N[C@@H](CO)C(=O)N[C@@H](CCC(N)=O)C(=O)N[C@@H](Cc1ccccc1)C(=O)N[C@@H](CCC(=O)O)C(=O)N[C@@H](CCCNC(=N)N)C(=O)N1CCC[C@H]1C(=O)N[C@@H](CO)C(=O)NCC(=O)O)[C@@H](C)O, “ln rate constant ratio” read 1 ± 0.5 (PROK; proteolysis, substrate, HPLC; room temperature; reference: PEGylated over non-PEGylated variant, negative = more stable).

A few entries again:
CC(=O)NCc1cccc(C(=O)Nc2cccc3c(S(=O)(=O)O)cc(C(=O)NCc4cccc(C(=O)Nc5cccc6c(S(=O)(=O)O)cc(C(=O)NCC(=O)N[C@@H](CC(C)C)C(=O)N[C@@H](CCCCN)C(=O)N[C@@H](C)C(=O)NCC(=O)O)nc56)n4)nc23)n1 has a half-life of 9 min (pronase E; substrate, RP-HPLC; pH 7.5, room temperature).
